# Published values of several laboratories.
# Every numbered part comes from another study and shows a few of its results, in no order. Substitutions count along the parent as printed.

# Set 1
# Target: XBP1, bZIP domain (human)
# Technique: DHFR protein complementation
# Medium: yeast
# Notes: single substitutions, most at no-binding floor
# Relative to: wild-type JUN-FOS pair
# Direction: higher = stronger binding
# Parent: JUN, bZIP domain (human); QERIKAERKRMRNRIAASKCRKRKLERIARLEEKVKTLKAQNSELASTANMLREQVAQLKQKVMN; partner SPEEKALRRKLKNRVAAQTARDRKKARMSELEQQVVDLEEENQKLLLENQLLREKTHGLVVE
Substitution,binding fitness [natural log]
K39H,-1.32
L45K,-1.49
V35F,-1.45
K36G,-1.26
E32G,-1.39
L31P,-1.44
A49D,-1.47
A40E,-0.637
A46K,-0.169
T48M,-0.662
R30D,-0.371
V56M,-0.621
A29L,-1.18
K34M,-1.13
S43F,-0.864

# Set 2
# Target: ABI1, truncated, D143A, DHFR fusion (Arabidopsis thaliana)
# Technique: DHFR PCA, deep sequencing
# Medium: yeast
# Notes: methotrexate growth selection, single substitutions
# Together with: (+)-ABA 200 µM
# Relative to: wild-type fitted maximum
# Direction: higher = stronger binding
# Parent: PYL1, truncated, DHFR fusion (Arabidopsis thaliana); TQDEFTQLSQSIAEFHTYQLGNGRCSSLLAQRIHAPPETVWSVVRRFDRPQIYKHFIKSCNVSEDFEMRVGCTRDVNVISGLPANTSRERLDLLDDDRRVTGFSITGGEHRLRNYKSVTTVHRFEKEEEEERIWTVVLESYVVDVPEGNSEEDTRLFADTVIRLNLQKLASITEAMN; partner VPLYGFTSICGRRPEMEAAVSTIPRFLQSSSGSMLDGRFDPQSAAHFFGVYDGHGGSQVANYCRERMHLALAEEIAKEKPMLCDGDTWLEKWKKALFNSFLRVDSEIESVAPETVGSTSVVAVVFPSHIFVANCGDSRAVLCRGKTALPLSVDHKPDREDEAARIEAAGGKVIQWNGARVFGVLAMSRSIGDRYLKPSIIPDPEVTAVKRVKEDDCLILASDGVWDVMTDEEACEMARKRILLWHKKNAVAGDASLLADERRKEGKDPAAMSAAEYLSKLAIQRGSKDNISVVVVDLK
Substitution,relative binding score [%]
A158P,2.27
Q7K,96.1
L169C,29.3
V137T,34.3
E128I,99.6
L93V,105
E131C,108
V44A,77.8
N149Q,55.7
E151S,94.2
E130W,92.4
I162K,19.4
V78K,7.98
T6C,94.8
A84D,26.3
C60P,11.9
V76K,-8

# Set 3
# Target: POU, POU domain (Salpingoeca helianthica)
# Technique: Spec-seq
# Form: double-stranded DNA, one strand shown
# Medium: in vitro
# Concentration: not given
# Notes: whole probe, mean of replicates
# Relative to: not given
# Direction: lower = stronger binding
# Constant ends, left off below: GAGTCGTCTCGTCAGCAC … CCGTAGAGCACTCAGGTC
# Target sequence (chain): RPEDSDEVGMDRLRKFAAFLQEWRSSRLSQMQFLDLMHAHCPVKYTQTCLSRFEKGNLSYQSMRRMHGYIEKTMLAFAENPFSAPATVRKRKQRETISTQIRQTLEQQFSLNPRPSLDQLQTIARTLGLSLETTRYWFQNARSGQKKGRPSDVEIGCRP
Oligonucleotide,relative binding energy
GGGCTAAT,0.812 ln ratio
ATAACCAT,-0.0599 ln ratio
ATGCTAAC,0.72 ln ratio
TTTTTAAT,-0.092 ln ratio
ATGCGTAC,1.33 ln ratio
ATTGGCAT,1.38 ln ratio
ATGGTAAT,0.68 ln ratio
GCGATAAT,0.251 ln ratio
TTACTAAT,0.293 ln ratio
ATGCGGCA,1.48 ln ratio
ATGCCACG,1.43 ln ratio
GGTTTAAT,0.016 ln ratio

# Set 4
# Target: Prothrombin, mature alpha-thrombin (F2, Homo sapiens, UniProt P00734)
# Technique: aptamer microarray, sandwich
# Form: DNA with 2'F-ANA
# Medium: in vitro
# Concentration: 200 nM
# Notes: whole 15-mer aptamer, many near background
# Together with: Cy3 exosite-II aptamer, 400 nM
# Direction: higher = stronger binding
# Oligonucleotide: GGTTGGTGTGGTTGG
Modification,mean fluorescence intensity
2'F-ANA at 2 3 5 9 10 14 15,48 a.u.
2'F-ANA at 1 7 8 10 13 15,52.9 a.u.
2'F-ANA at 2 4 8 10 11 15,103 a.u.
2'F-ANA at 1 5 7 8 10 12 13 14 15,48.4 a.u.
2'F-ANA at 1 3 4 6 8 9 11 12,368 a.u.
2'F-ANA at 4 7 9 10 14 15,62.8 a.u.
2'F-ANA at 3 4 9 10 13,256 a.u.
2'F-ANA at 2 4 5 6 7 8 10 15,81.7 a.u.
2'F-ANA at 3 5 8 10 11 13 14,58.4 a.u.
2'F-ANA at 1 2 3 4 5 6 7 8 10 14 15,57.1 a.u.
2'F-ANA at 1 5 8 9 11 14,49 a.u.
2'F-ANA at 2 4 5 6 7 8 9 14,48.7 a.u.
2'F-ANA at 1 2 4 5 6 8 9 12 13 14,48.5 a.u.
2'F-ANA at 1 3 5 6 7 8 9 12,161 a.u.
2'F-ANA at 3 4 6 7 9 11 13,387 a.u.
2'F-ANA at 3 4 5 6 7 8 9 11 13,71.3 a.u.
2'F-ANA at 2 5 10 11 12 14 15,54.3 a.u.
2'F-ANA at 3 4 5 7 10 13,50.6 a.u.
2'F-ANA at 1 3 5 6 8 9 11 12 14 15,46 a.u.
2'F-ANA at 1 2 3 6 7 9 10 12 14 15,55.1 a.u.
2'F-ANA at 7 11,577 a.u.
2'F-ANA at 2 4 5 7 11 13,66.5 a.u.
2'F-ANA at 1 4 5 7 9 12 13 15,64.8 a.u.
2'F-ANA at 1 3 4 5 6 7 9 10 11 15,52.4 a.u.
2'F-ANA at 5 6 7 8 10 12 14 15,52.6 a.u.

# Set 5
# Target: RNA binding protein fox-1 homolog 2, RRM domain, GST-SBP tag (RBFOX2, Homo sapiens, UniProt O43251-10, residues 100-194)
# Technique: RNA Bind-n-Seq
# Form: RNA
# Medium: in vitro
# Concentration: 365 nM
# Notes: natural RNA segment, single round, ends assumed
# Relative to: no-protein control
# Direction: higher = stronger binding
# Target sequence (chain): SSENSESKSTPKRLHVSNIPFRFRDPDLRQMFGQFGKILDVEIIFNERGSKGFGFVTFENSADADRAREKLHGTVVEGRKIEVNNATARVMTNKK
Oligonucleotide,RBNS enrichment (R)
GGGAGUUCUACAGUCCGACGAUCCCCGCCUCUUGUAAUGCUCUGGUGGGUUCUUGUUUGGGAAUGCGAUAUUUUGUGGCUGGUUUAGCUAGAGAGUGAACUCUCAAAGGUAUCAAAACUGUGCUUCCAUUAUUUGGAAUUCUCGGGUGCCAA,1.46
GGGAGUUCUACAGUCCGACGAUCUAUUUAUAGUCCCUCCUAUCAAACAAUUACAGAGCACAAUGAUUGUCAUUGGGUAUAUAUGUAUUUACUCUCUAUUAUUGGGCAUAAAGGUGGCUUCUGCUCCAGAACUCUGGAAUUCUCGGGUGCCAA,0.421
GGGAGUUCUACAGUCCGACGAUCGCCGUGGUACUUUUCCAUUUAGAUUCAAAUGGAGCUAAAAUUAAGAGUUUUAUGAGCUGUUAAGAAUGAGGUAGUUUCUCCUAGGACCCCCCAAAGACAGUGCAAGUAAUUGGAAUUCUCGGGUGCCAA,0.575
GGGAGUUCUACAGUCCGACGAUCAUGAAUGUCAACCCACAGCAGCCGGCUAGGCAAAUGAGGCAGAGGGACUCUGCUCAGCCCUCUGUAUAUCACUGUCAGGGUGGGUACGGCUCAUUGGUUCUGAUUUGCCCUGGAAUUCUCGGGUGCCAA,0.728
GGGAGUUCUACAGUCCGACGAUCGAGGCAGGUGGAUUUCUAAGUUCGAGGCCAGCCUGGUCUACAGAGUGAGUUCCAGGACAGCCAGGGCUACACAGAGAAACCCUGUCUCAAAAAAAAAAAAGAAAGAAAGAUGGAAUUCUCGGGUGCCAA,0.284
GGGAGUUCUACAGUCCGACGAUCUGACUUUACGUGCAAAUGUUUUGACCAUAUUGAUCAUAUAUUUUGACAAAAUAUAUUUAUAACUACGUAUUAAAAGAAAAAAAUAAAAUGAGUCAUUAUUUUAAAGGUAAUGGAAUUCUCGGGUGCCAA,0.597
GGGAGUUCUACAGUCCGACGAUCUAGCAAAAUUUCUAUUUGUACGUUCACUAAUUAUCUACAAGGACAAAAUCAGUUGUAUUUACAAAACUCUACUUCAGUGUUUGUUUUAGUUUUUUUUUUUACUGAAACUUUGGAAUUCUCGGGUGCCAA,0.636
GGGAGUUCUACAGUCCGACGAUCAUUGAUUGAUUGAUUGACUGAUUGUUUUAACUGAUUACUGUAGAUCAACCUGAUGAUUUGUUUGUUUGAAAUUGGCAGGAAAAAUGCAGCUUUCAAAUCAUUGGGGGGAGUGGAAUUCUCGGGUGCCAA,1.33
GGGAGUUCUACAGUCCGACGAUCCUUCCUGACUGCUUUCUCCAACUGUUCACAGCAAAUGCUUGGAUUUUAUGCAGUAGGCAUUACUACAGUACAUGGCUAAUCUUCCCAAAAACUAGCUCAUUAAAGAUGAAUGGAAUUCUCGGGUGCCAA,0.336
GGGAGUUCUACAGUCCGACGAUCUAGCCCAAGAACAGAAAGAACCUUGCUGGGGUUGGAGGUUUCACUUGCACAUCAUGGAGGGUUUAGUGCUUAUCUAAUUUGUGCCUCACUGGACUUGUCCAAUUAAUGAAUGGAAUUCUCGGGUGCCAA,0.404
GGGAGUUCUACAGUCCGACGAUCAGAACCUGCCUCCCUCCCAGAAGUCACAGCACCUGCUUCUCAGCUCCUCAUGUGUGCAUGUGUGCCAGAGCGCCAGGCAGGGUGGUUGCCUCAUCACCUCAUGGCCAAUUUGGAAUUCUCGGGUGCCAA,3.09
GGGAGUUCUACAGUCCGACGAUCAAAACCAGACCACAGCACAGCCAGGGAGCCCAGUAGUGUUUCCAAGAACAGUGUGGAGCUUGAGAAAGAGAACUUUAAAAAUUAGAGGGUCCCUUUCUGCAGAGGAAGGGUGGAAUUCUCGGGUGCCAA,0.3

# Set 6
# Target: CCND2, cyclin fold, Cln2 fusion (human)
# Technique: yeast growth competition, sequencing
# Medium: yeast
# Notes: weak parent motif
# Relative to: not given
# Direction: higher = stronger binding
# Parent: E2F1 docking peptide (human); PPVKRRLDLETDH
Substitution,normalised enrichment score
PPVKRRLDLSTDH [E10S],0.183
PPVKRRPDLETDH [L7P],0.594
PPVKRRLDLNTDH [E10N],0.36
PPVKCRLDLETDH [R5C],0.338
PPVKRRLDLETPH [D12P],0.598
PPVKRRLDLEGDH [T11G],-0.0214
PPVKRREDLETDH [L7E],-0.0235
PPVKRRLDLETDM [H13M],0.347
PPVKRRLDLETDN [H13N],0.312
PPVKVRLDLETDH [R5V],0.256
PPVKRRLDLELDH [T11L],0.481
DPVKRRLDLETDH [P1D],-0.258
PPVKRRLDLEFDH [T11F],0.484
PPNKRRLDLETDH [V3N],0.13
PPVKRRLVLETDH [D8V],0.158
PPVKGRLDLETDH [R5G],0.282
PPLKRRLDLETDH [V3L],-0.394
SPVKRRLDLETDH [P1S],0.144
PPVKYRLDLETDH [R5Y],0.132

# Mixed results
Molecule,partner,test,setting,endpoint,value
"HNRNPCL3 (Homo sapiens, UniProt B7ZW38)","HNRNPC (Homo sapiens, UniProt P07910)",cross-linking MS,hits only,interaction screen,cross-linked

# Repeated from above (set 4):
Modification,mean fluorescence intensity
2'F-ANA at 7 11,577 a.u.
2'F-ANA at 2 4 5 7 11 13,66.5 a.u.
2'F-ANA at 3 4 6 7 9 11 13,387 a.u.
2'F-ANA at 2 4 8 10 11 15,103 a.u.
2'F-ANA at 5 6 7 8 10 12 14 15,52.6 a.u.
2'F-ANA at 1 3 4 5 6 7 9 10 11 15,52.4 a.u.
2'F-ANA at 1 2 3 6 7 9 10 12 14 15,55.1 a.u.
2'F-ANA at 3 4 5 7 10 13,50.6 a.u.
2'F-ANA at 3 5 8 10 11 13 14,58.4 a.u.
2'F-ANA at 1 2 4 5 6 8 9 12 13 14,48.5 a.u.
2'F-ANA at 2 3 5 9 10 14 15,48 a.u.
